Measured values of several laboratories.
Parts stem from different laboratories: compare values within a part only. Positions count from the first letter of the parent shown.

Study 1 — target: CCND2, cyclin fold, Cln2 fusion (human); method: yeast growth competition, sequencing; medium: yeast; notes: weak parent motif; baseline: not given; reading: higher = stronger binding
Starting sequence: SAMHD1 docking peptide (human); ASKSRVQLFKDDP; partner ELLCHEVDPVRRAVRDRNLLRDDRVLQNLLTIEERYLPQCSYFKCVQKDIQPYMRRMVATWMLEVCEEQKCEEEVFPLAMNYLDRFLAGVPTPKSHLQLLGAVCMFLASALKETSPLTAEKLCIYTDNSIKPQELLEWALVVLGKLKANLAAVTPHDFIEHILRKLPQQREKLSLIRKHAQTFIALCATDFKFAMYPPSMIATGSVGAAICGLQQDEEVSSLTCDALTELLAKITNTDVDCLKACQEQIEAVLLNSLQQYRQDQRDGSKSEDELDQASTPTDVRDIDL
`L8C` — result for “normalised enrichment score”: 0.229.
`Q7D` — result for “normalised enrichment score”: 0.0743.
`V6E` — result for “normalised enrichment score”: 0.102.
Under “normalised enrichment score”, `S2A` is recorded as 0.0808.
For `V6Q`, “normalised enrichment score” read -0.544.
`S4D`: “normalised enrichment score” 0.335.
`Q7I` — result for “normalised enrichment score”: -0.127.
`F9A`: “normalised enrichment score” 0.199.
`R5S`: “normalised enrichment score” -0.229.
`L8Q` — result for “normalised enrichment score”: 0.142.
`F9I` — result for “normalised enrichment score”: 0.254.
For `L8E`, “normalised enrichment score” read 0.2.

Study 2 — method: protein-binding microarray; molecule type: double-stranded DNA, one strand shown; medium: in vitro; concentration: 0.8 µM; notes: whole 60-bp probe, no competitor; reading: higher = stronger binding
Target: Centromere-binding protein 1, full length, N-terminal tag (CBF1, Saccharomyces cerevisiae, UniProt P17106, residues 1-351)
UniProt P17106, sequence (whole entry, looked up): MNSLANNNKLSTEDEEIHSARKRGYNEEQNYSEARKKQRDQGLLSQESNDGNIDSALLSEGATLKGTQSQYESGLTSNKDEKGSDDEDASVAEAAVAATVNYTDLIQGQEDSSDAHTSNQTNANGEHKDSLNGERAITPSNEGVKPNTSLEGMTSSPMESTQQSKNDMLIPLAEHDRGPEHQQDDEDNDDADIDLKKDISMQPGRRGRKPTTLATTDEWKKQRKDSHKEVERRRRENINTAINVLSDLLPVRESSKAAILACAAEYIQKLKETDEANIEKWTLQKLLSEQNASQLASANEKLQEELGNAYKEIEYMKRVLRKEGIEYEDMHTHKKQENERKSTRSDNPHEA
The fluorescence intensity of `TGTACGAAGCTATATATGGTGAGTATAGTAGTTAGGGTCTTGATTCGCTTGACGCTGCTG` is reported as 514 a.u.
For `CTATTAGTAGTGTGTCACCCGGATCAGCAAAATTTCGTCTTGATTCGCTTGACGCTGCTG`, the fluorescence intensity was 567 a.u.
`GAATGGCAGCTCTATCACGAAGCGATGGAAAAATAGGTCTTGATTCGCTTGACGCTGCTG` gave a fluorescence intensity of 545 a.u.
The fluorescence intensity of `GAATGCTGTGACTGTCACGCAACATGTCCACCATAGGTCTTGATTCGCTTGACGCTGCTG` is reported as 657 a.u.
With `GAACAATCACGCACGCACGCAGTCGGTGCACGCTAGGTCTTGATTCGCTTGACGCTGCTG` the fluorescence intensity was 724 a.u.
With `CTATTTGTTTAAAATTTCACCAGATCTGCTTGATTCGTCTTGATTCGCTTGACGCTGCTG` the fluorescence intensity was 491 a.u.
`CTAAGAAACTGCAGCATCATGATGTTCCTAGACTTCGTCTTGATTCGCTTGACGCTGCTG` has a fluorescence intensity of 482 a.u.
With `CTACCCTACCGTCATCATATGAAATATCAATCTTTCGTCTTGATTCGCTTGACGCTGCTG` the fluorescence intensity was 538 a.u.
With `GAAACAAAACTATTTAAGGTGACTTCTCCGTATTAGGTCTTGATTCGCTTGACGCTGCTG` the fluorescence intensity was 502 a.u.
With `TGTACGAAGCTATGCGGTCACATTATAGTAGTTAGGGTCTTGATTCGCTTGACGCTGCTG` the fluorescence intensity was 691 a.u.
`CTATGGCGACTTTTGCACGTGAACGACGTCCCCTTCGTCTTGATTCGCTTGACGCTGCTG` has a fluorescence intensity of 5670 a.u.
With `GAATGTCTTTAAGTCCATCACATGGTGTTTTATTAGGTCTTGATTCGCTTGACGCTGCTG` the fluorescence intensity was 2700 a.u.
`CTAGCTCCTACACATCAGATCGTCAAGTACATTTTCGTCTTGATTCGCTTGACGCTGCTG` has a fluorescence intensity of 547 a.u.
With `CTATGGACTAGGCATCACCCAGACTTTACTTTTTTCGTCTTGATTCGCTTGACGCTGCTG` the fluorescence intensity was 515 a.u.
The fluorescence intensity of `GAAATAACAAAACAGGTGATAACCGTGATCCTGTAGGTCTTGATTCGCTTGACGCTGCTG` is reported as 1100 a.u.

Study 3 — method: RNA Bind-n-Seq; molecule type: RNA; medium: in vitro; concentration: not given; baseline: input RNA pool; reading: higher = stronger binding
Target: RING finger protein unkempt homolog, zinc fingers 1-6, GST-SBP tag (UNK, Homo sapiens, UniProt Q9C0B0, residues 30-357)
UniProt Q9C0B0, sequence (30-357, looked up): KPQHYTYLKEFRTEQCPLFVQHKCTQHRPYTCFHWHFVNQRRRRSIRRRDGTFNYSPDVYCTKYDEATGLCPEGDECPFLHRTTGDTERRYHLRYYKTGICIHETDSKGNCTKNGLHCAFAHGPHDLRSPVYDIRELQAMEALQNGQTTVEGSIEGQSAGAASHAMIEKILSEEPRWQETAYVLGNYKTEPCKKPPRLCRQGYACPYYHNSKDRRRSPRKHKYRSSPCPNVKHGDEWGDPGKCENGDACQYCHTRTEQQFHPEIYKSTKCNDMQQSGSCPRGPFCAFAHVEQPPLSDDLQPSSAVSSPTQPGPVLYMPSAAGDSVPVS
Notes: RNA with constant flanks, human and mouse sites, ends assumed
With `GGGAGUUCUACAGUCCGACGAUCUAUAGUGUAAUAUAUAUAUAAUAGCUCUAAUUAUAAAUACACUUUUACUCUGGAAAAAGCAUAGACAUUGACAUAAGAGACAUUUAAAAACCAUUAUUUUCUCAUCUGUAAAAUGGAGAGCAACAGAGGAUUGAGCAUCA` the bound/input enrichment was 1.26 ratio.
`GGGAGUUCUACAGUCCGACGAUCGAGAUGUUUCAAACCUUGAUUCAAAAAGUCUGGGUCCCCAUGAAACCCUACUAUACCCAGGUUUACCAGGAAAUUUGGGUAGGAGUGGGGUUAAUGAGCCUCAUCGUAUAUAAAAUCAGGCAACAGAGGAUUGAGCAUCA` has a bound/input enrichment of 0.295 ratio.
The bound/input enrichment of `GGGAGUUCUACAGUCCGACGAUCCCAGAGGUGAAAGGCUAUUGGGCAAGUUUGGAUGCAUCUACUCAAACCACCCAUGAACUCACCAUUCCAAAUAACUUAAUUGGCUGCAUAAUCGGGCGCCAAGGCGCCAACAUUAAUGAGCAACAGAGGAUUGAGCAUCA` is reported as 0.121 ratio.
With `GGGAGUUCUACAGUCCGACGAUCCCUGGGCUCUAGCCUCCCUUAGUUGAGCACAGAACUCACAGCUCUGGUGCAGGCAGACCCUGCCACUCAGGUGCCUAAGCAAAGGACAAGCCGUCCAGAUAGAACUGUACAUAGCUAGUGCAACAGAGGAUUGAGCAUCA` the bound/input enrichment was 0.955 ratio.
With `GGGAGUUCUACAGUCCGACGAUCAGCUCUGGCCCGCAUCUCGCUGUGCCCUGAAGGGGGAUGAAGGGCGAUGCCUCGCCCGAGGCUUUGGGCUGCUGCACUGCAUGCUGGGACUGCUCCUACUCUCUGUCCCACCCCUCACCCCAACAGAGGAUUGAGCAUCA` the bound/input enrichment was 0.118 ratio.
`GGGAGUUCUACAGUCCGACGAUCAUUGAGUAUAAACUCAUCUACUUCAAAUUUAUUUUAUAACACAACCUAAGAUACUCAAGAUAAUUAUUUAAUGGUUAGCUCUUAAGUUGAAUUGGUCUACAUAAUGCGUGGGAAGAAAACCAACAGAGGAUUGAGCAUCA` gave a bound/input enrichment of 0.963 ratio.
`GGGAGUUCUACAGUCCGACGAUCUGUUAUUCUGAUGGCACCGCCGUUCACGAAAGCCAUGCAAAGAAUGCUUCUUUUUAUGCCAACUCUUCAACUCUGUAUUACCAAAUAGAUAGCCACAUUCCAGGAACUCCAAAUCAGAUCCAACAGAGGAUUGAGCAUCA` gave a bound/input enrichment of 1.01 ratio.
For `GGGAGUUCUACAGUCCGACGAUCACUGACCAAUGCACCAAAUGAAUGCUAAAAUGCACUUUAGGUUUGUUUUUGCACUUCUGAUAGUAUCUUUCAACCACGAUGUACUGGGCAAGAAUUUGAAAUACAGGAUUUAUGAGGAACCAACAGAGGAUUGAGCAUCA`, the bound/input enrichment was 0.387 ratio.
For `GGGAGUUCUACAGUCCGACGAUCUUGGAAUUAAUAAAGCAGUUGACAUUCACUGUUAGUUACAGCAACAUACUGUGAUUUUUAAUUAGAUAGUAAUUCAGAUUUAUUACUCUAUGAAAUUCUGUCUUUUGACACCAUAGUGCCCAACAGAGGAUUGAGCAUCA`, the bound/input enrichment was 0.725 ratio.
`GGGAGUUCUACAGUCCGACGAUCACAAUCGUUGACACAGUGGGAUUUGGAGACCAGAUUAAUAAAGAUGACAGCUAUAAGCCUAUAGUGGAAUACAUUGACGCCCAGUUUGAGGCCUACUUGCAAGAAGAAUUGAAAAUUAAACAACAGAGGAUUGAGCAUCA` has a bound/input enrichment of 0.341 ratio.
`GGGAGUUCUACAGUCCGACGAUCUGUGGCCUUUCUGAGGAGAAAGCUGUGGAGAAGUUUGGGGAAGAAAAUAUUGAGGUUUACCAUAGUUACUUUUGGCCAUUGGAAUGGACGAUUCCGUCAAGAGAUAACAACAAAUGUUAUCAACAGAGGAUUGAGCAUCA` has a bound/input enrichment of 0.395 ratio.

Mixed results
`PhoQ, residues 284 288 289 292 302 303 HSSMNL` has a fold induction of 0.985 (PhoP, residues 12 14 15 18 19 SYFRT (Escherichia coli, UniProt P23836); Sort-seq, measured: YFP reporter; E. coli; PhoQ-PhoP variant library, added: 10 µM Mg2+; baseline: high Mg2+ state, higher = stronger signaling).
